Experimental data collected from several papers.
Numbers after ± are the reported error.
UniProt P48147, sequence (whole entry, looked up): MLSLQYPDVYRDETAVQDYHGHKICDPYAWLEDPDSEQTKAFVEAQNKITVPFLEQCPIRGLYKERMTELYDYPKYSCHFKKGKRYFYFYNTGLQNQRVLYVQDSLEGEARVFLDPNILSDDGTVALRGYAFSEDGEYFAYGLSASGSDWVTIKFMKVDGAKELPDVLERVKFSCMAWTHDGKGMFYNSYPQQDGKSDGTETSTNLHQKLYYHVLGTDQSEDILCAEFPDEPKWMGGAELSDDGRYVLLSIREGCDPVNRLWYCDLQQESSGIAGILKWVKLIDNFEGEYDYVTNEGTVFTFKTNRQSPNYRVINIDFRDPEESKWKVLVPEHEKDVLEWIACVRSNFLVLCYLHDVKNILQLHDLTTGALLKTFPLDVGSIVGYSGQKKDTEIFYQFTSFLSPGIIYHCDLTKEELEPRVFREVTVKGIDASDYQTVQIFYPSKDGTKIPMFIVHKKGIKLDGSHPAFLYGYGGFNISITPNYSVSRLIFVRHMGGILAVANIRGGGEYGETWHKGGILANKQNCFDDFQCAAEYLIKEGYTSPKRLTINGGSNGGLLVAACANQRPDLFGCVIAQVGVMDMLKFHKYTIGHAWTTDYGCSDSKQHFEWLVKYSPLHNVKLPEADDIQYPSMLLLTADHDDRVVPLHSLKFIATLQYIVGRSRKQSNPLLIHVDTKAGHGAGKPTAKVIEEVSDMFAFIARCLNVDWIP
UniProt P54756, sequence (whole entry, looked up): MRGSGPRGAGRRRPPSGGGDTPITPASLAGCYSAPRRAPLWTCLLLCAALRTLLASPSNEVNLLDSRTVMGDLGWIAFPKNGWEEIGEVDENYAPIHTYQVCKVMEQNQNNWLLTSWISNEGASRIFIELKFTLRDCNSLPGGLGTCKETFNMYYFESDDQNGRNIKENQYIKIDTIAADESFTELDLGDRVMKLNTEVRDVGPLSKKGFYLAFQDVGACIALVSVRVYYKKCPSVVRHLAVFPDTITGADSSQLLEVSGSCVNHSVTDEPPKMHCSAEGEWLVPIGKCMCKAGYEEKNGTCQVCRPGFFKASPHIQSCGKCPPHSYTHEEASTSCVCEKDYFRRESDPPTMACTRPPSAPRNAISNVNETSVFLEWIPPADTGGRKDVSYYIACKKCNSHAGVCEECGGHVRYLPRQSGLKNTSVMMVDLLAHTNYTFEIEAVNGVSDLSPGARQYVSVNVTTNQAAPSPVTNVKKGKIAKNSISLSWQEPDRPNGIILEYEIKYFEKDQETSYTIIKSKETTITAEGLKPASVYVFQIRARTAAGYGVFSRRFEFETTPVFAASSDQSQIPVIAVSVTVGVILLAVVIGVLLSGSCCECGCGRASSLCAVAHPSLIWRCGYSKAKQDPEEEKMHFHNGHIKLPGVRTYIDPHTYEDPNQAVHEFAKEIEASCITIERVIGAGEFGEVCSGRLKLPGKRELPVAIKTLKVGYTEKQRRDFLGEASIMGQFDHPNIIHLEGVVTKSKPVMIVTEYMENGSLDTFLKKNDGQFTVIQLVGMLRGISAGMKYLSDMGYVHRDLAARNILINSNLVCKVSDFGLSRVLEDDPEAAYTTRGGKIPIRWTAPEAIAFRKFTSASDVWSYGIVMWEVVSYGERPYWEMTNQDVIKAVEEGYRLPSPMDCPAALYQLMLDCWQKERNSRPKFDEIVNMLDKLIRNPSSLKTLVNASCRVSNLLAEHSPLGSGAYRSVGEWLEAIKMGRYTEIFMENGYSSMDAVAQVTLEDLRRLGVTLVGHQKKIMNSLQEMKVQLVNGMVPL
UniProt P04756, sequence (whole entry, looked up): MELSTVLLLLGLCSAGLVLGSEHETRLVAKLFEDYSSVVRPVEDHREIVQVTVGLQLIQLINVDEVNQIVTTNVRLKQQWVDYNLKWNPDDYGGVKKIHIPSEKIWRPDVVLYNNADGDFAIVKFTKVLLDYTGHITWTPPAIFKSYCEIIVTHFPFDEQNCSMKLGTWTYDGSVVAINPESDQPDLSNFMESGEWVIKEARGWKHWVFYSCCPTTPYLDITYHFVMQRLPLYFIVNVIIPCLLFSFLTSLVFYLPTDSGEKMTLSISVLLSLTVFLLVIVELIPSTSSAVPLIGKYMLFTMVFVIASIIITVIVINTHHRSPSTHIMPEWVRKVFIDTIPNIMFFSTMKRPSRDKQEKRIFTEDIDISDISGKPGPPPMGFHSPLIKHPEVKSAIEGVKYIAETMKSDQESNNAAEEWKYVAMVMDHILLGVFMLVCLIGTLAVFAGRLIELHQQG
UniProt P02716, sequence (whole entry, looked up): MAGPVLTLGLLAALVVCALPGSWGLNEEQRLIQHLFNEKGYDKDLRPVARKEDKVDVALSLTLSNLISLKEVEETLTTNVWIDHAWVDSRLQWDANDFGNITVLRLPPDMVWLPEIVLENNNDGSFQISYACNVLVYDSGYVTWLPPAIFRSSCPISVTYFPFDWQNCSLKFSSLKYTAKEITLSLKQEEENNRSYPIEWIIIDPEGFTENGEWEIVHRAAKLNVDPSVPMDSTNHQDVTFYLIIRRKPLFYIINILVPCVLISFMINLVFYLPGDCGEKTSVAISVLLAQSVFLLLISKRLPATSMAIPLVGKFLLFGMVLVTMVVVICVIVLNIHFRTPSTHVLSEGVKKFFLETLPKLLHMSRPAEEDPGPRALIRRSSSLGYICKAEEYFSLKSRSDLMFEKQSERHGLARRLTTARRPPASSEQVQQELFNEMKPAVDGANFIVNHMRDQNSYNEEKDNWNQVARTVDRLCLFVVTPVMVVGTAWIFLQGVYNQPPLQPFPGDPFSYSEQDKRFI
UniProt Q62351, sequence (whole entry, looked up): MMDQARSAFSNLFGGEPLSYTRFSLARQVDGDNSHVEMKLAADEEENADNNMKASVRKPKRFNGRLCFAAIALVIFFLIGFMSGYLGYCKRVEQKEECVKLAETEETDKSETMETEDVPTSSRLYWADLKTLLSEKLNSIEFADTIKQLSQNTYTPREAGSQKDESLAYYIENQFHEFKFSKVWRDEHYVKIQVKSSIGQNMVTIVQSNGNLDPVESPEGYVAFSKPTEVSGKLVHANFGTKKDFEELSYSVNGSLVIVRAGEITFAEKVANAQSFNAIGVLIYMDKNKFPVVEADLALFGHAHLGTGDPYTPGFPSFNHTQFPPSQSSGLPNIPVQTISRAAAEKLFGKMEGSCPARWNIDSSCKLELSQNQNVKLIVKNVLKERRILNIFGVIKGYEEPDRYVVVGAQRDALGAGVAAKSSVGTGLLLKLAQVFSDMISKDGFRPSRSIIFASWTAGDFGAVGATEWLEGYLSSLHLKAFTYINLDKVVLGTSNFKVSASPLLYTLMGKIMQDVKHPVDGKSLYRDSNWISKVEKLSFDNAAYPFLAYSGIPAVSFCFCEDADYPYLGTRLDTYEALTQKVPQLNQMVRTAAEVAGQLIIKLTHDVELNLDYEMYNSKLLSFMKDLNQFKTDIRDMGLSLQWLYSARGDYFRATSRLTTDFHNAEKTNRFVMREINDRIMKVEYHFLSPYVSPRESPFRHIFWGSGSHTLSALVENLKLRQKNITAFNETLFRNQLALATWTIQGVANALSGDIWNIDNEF
UniProt P37288, sequence (whole entry, looked up): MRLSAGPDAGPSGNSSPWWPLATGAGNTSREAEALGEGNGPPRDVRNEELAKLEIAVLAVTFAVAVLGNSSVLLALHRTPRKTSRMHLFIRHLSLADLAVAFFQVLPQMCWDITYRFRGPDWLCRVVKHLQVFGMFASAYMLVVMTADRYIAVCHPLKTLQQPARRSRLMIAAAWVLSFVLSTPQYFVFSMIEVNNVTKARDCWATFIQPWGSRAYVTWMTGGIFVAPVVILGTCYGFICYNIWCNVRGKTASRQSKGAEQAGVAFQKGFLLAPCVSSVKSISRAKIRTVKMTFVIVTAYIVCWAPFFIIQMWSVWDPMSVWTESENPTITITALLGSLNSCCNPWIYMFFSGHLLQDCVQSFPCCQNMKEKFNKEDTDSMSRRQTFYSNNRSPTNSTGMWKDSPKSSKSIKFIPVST
UniProt Q16659, sequence (whole entry, looked up): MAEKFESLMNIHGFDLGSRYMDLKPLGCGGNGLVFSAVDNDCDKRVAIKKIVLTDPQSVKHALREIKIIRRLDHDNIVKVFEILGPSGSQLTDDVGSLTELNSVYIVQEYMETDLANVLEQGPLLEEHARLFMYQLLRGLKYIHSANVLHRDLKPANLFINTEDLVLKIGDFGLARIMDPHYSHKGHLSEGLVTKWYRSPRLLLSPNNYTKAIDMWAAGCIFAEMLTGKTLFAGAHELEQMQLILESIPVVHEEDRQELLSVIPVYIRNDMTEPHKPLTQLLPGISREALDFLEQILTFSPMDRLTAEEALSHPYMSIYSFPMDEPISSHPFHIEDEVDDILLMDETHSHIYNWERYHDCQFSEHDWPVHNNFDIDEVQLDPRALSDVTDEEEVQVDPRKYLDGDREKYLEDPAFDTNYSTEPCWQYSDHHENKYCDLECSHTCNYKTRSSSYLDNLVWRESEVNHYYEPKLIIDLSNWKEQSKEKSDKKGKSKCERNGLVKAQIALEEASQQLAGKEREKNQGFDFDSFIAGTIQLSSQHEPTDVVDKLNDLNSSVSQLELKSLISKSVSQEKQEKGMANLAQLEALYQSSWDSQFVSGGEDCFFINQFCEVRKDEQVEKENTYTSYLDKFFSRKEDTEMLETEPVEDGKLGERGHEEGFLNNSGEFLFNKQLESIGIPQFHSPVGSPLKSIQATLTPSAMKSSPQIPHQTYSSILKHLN
UniProt P48730, sequence (whole entry, looked up): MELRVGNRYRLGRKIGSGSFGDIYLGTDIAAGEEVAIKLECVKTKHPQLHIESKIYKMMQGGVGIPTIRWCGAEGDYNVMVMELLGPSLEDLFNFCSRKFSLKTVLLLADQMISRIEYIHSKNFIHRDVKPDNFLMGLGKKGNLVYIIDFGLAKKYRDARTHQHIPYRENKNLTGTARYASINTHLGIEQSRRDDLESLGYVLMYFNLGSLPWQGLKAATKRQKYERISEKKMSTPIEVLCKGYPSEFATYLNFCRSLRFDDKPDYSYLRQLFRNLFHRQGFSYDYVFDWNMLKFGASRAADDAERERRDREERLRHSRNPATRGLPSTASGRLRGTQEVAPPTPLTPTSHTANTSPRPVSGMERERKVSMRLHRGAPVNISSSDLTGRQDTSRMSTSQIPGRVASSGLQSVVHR

| SMILES | target | test | test system | conditions | how to read | quantity | value |
| --- | --- | --- | --- | --- | --- | --- | --- |
| CC(C)[C@@H](O)CC[C@@H](C)[C@H]1CC[C@H]2[C@@H]3CC=C4C[C@@H](O)CC[C@]4(C)[C@H]3CC[C@]12C | Glutamate NMDA receptor; GRIN1/GRIN2B (GRIN1/GRIN2B, Homo sapiens, UniProt Q05586+Q13224, N650A) | positive allosteric modulator, two-electrode voltage clamp | Xenopus oocytes expressing GluN1-N650A | 10 µM, 0.02% cremophor, with: 100 µM glutamate and glycine | baseline: without compound | current response | 250 ± 13% |
| [2H]c1c([2H])c([C@]2([2H])CCCN2C(=O)C(C)(C)Oc2ccc3cn[nH]c3c2)c([2H])c([2H])c1C([2H])([2H])[2H] | MAPK6 (Homo sapiens, UniProt Q16659) | KINOMEscan | – | 1 µM | baseline: DMSO control | remaining binding | 83% |
| COc1ccc(N2C(=O)N(c3c(C)cccc3Cl)Cc3cnc(Nc4ccc(C5CCN(C)CC5)cc4OC)nc32)nc1 | EPHA5 (Homo sapiens, UniProt P54756) | kinase activity | – | 0.5 µM | – | inhibition | 97% |
| CN1CCN(c2cc(-c3ccncc3)c(-c3ccc4ccccc4c3)nn2)CC1 | NPY4R (Homo sapiens, UniProt P50391) | agonist, FLIPR | – | 12.5 µM | – | activation | 0.4% |
| Oc1ccc(/C=C/c2cc(O)cc(O)c2)cc1 | O-methyltransferase (Sorghum bicolor, UniProt A0A1B6PFV1, W279A) | isothermal titration calorimetry | – | concentration not given, APO | – | binding stoichiometry N | 0.82 ± 0.017 sites |
| Nc1ncnc2c1ncn2[C@@H]1O[C@H](COP(=O)(O)OP(=O)(O)OP(=O)(O)O)[C@@H](O)[C@H]1O | PRKACA (Homo sapiens, UniProt P17612) | substrate, HPLC | – | 15 min, pH 7.4, 25 °C, with: 25 µM Rh-MAB-Kemptide | – | Vmax | 4.52 ± 0.33 µmol/min/mg |
| O=C(Nc1cccnn1)N1CCC(=Cc2cccc(Oc3ccc(C(F)(F)F)cn3)c2)CC1 | AMPA receptor, rat | binding | – | 10 µM, with: [3H]AMPA | – | inhibition | -7% |
| Cn1cc(C(=O)CCl)nn1 | UCHL1 (Homo sapiens, UniProt P09936) | covalent, intact protein LC-MS | – | 12.5 µM | – | labelling | 19.9% |
| O=C(Nc1cnccc1Cl)N1CCN(Cc2ccc3c(c2)OC(F)(F)O3)CC1 | muscarinic receptor, rat | binding | – | 50 µM, with: [3H]oxotremorine M | – | inhibition | 13% |
| CC[N+]1(CC)CCN(c2cccc(Br)c2)CC1 | Nicotinic acetylcholine receptor alpha1/beta1/epsilon/delta (Mus musculus, UniProt P02716+P04756+P09690+P20782) | ion current, inhibitor, two-electrode voltage clamp | Xenopus oocytes | 30 µM, after co-application, unit not given, with: ACh 30 µM | baseline: ACh alone | ACh response | 0.537 ± 0.254 |
| CC[C@@H](C)[C@@H](NC(=O)[C@@H](Cc1ccc(O)cc1)NC(=O)[C@H]1CCCN1C(=O)[C@@H](CCCNC(=N)N)NC(=O)[C@H](N)Cc1c[nH]cn1)C(=O)N[C@H](C)C(=O)N[C@H](Cc1c[nH]cn1)C(=O)N[C@H](CCCNC(=N)N)C(=O)N[C@H](CCCCNC(=O)c1cccc(S(=O)(=O)F)c1)C(=O)N[C@H](Cc1ccc(O)cc1)C(=O)N[C@H](CO)C(=O)N[C@H](Cc1ccccc1)C(N)=O | Transferrin receptor protein 1 (Tfrc, Mus musculus, UniProt Q62351) | flow cytometry | DC2.4 | 2 h, pH 6, replicate 2, unit not given | baseline: 0 h | surface TFRC expression | 0.882 |
| C[C@H]1CN(c2n[nH]c3nc(N[C@H]4CC[C@H](NS(=O)(=O)CCC(F)(F)F)CC4)ncc23)CCO1 | EPHA3 (Homo sapiens, UniProt P29320) | inhibitor, Kinobeads competition profiling | – | 0.16 µM | baseline: vehicle | relative abundance | 1.11 |
| CCCCCC(=O)O | Albumin (ALB, Homo sapiens, UniProt P02768) | differential scanning calorimetry | – | concentration not given, second transition, HSA 15 µM | baseline: HSA alone | melting temperature change | -2.7 °C |
| COc1ccc(C[C@@H]2NC(=O)CC3(CCCCC3)SSC[C@@H](C(=O)N3CCC[C@H]3C(=O)N[C@@H](CCCNC(=N)N)C(=O)NCC(N)=O)NC(=O)[C@H](CC(N)=O)NC(=O)[C@H](CCC(N)=O)NC(=O)[C@H](Cc3ccccc3)NC2=O)cc1 | AVPR1A (Homo sapiens, UniProt P37288) | binding, agonist, radioligand binding | – | – | – | Hill coefficient | 1.3 |
| O=C(c1ccc(Cl)cc1)N1CCN2C(=O)N(OC(=O)N3CCOc4ccccc43)C(=O)C2C1 (centres unmarked) | PREP (Homo sapiens, UniProt P48147) | MS-based ABPP | SW-620 conditioned medium | 10 µM, 1 h, 37 °C | baseline: compound over DMSO, lower = more inhibition | mean protein ratio | 1.04 |
| COc1cc(Nc2ncc(F)c(Nc3ccc4c(n3)NC(=O)C(C)(C)O4)n2)cc(OC)c1OC | CSNK1D (Homo sapiens, UniProt P48730) | KINOMEscan | – | 10 µM | – | inhibition | 0% |
| Nc1ncc(-c2nc(N3CCOCC3)nc(N3CCOCC3)n2)c(C(F)F)n1 | TGFBR1 (Homo sapiens, UniProt P36897) | KINOMEscan | – | 10 µM | – | remaining binding | 100% |

Repeated from above:
| SMILES | target | test | test system | conditions | how to read | quantity | value |
| --- | --- | --- | --- | --- | --- | --- | --- |
| CCCCCC(=O)O | Albumin (ALB, Homo sapiens, UniProt P02768) | differential scanning calorimetry | – | concentration not given, second transition, HSA 15 µM | baseline: HSA alone | melting temperature change | -2.7 °C |
| O=C(Nc1cnccc1Cl)N1CCN(Cc2ccc3c(c2)OC(F)(F)O3)CC1 | muscarinic receptor, rat | binding | – | 50 µM, with: [3H]oxotremorine M | – | inhibition | 13% |
